Results gathered from unrelated publications.
Lines come from different studies, so protocols differ. ± gives the spread as reported.
BCHE: Cholinesterase (BCHE, Homo sapiens, UniProt P06276)
UniProt P06276, sequence (whole entry, looked up): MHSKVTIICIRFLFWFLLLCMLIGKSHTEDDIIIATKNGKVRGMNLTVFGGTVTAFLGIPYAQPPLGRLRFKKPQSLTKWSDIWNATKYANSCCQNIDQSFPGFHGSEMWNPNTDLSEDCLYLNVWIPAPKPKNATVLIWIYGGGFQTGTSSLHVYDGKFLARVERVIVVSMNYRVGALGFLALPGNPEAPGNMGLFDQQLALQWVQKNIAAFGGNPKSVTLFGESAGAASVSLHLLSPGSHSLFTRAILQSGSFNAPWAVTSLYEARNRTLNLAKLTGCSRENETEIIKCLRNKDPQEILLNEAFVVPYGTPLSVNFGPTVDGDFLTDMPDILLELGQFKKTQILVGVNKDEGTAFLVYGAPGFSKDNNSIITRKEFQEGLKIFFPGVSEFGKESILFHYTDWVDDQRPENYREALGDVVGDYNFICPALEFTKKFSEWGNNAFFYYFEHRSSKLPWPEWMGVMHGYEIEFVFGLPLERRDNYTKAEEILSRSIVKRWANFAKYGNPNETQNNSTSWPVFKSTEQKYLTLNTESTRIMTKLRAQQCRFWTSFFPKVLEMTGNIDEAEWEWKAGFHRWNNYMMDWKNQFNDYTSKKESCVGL

SMILES | target or system | test | test system | conditions | how to read | endpoint | value
CC(C)C[C@@H]1NC(=O)CNC(=O)[C@H](CC(N)=O)NC(=O)[C@H](CCCNC(=N)N)NC(=O)[C@H]([C@@H](C)O)NC(=O)[C@@H]2CSSC[C@@H]3NC(=O)[C@H]([C@@H](C)O)NC(=O)CNC(=O)[C@H](CCCCN)NC(=O)[C@H](C(C)C)NC(=O)[C@@H]4CSSC[C@H](NC(=O)[C@H]([C@@H](C)O)NC(=O)[C@H](CSSC[C@H](NC(=O)[C@H](C(C)C)NC(=O)[C@@H]5CCCN5C1=O)C(=O)NCC(=O)N[C@@H](CCC(=O)O)C(=O)N[C@@H]([C@@H](C)O)C(=O)N4)NC(=O)CNC(=O)[C@@H]1CCCN1C(=O)[C@H]([C@@H](C)O)NC(=O)[C@H](CC(N)=O)NC3=O)C(=O)N[C@@H](CO)C(=O)N[C@@H](Cc1c[nH]c3ccccc13)C(=O)N1CCC[C@H]1C(=O)N[C@@H](C(C)C)C(=O)N2 |  | HPLC | water | 180 µM, 14 days, 37 °C, deamidation stability |  | remaining peptide | 97.1 ± 0.5%
CC[C@H](C)[C@H](NC(=O)[C@H](Cc1ccccc1)NC(=O)[C@H](CCC(=O)O)NC(=O)[C@H](CCCNC(=N)N)NC(=O)[C@H](C)NC(=O)[C@H](C)NC(=O)[C@H](CCC(N)=O)NC(=O)[C@H](CCC(=O)O)NC(=O)[C@H](CCC(=O)O)NC(=O)[C@H](CC(C)C)NC(=O)[C@H](Cc1ccc(O)cc1)NC(=O)[C@H](CO)NC(=O)[C@H](CO)NC(=O)[C@@H](NC(=O)[C@H](CC(=O)O)NC(=O)[C@H](CO)NC(=O)[C@@H](NC(=O)[C@H](Cc1ccccc1)NC(=O)[C@@H](NC(=O)CNC(=O)[C@H](CCC(=O)O)NC(=O)[C@H](C)NC(=O)CCc1cnc[nH]1)[C@@H](C)O)[C@@H](C)O)C(C)C)C(=O)N[C@@H](C)C(=O)N[C@@H](Cc1c[nH]c2ccccc12)C(=O)N[C@@H](CC(C)C)C(=O)N[C@H](C(=O)N[C@@H](CCCNC(=N)N)C(=O)NCC(=O)N[C@@H](CCCNC(=N)N)C(=O)N[C@@H](CCCCNC(=O)COCCOCCNC(=O)COCCOCCNC(=O)CC[C@H](NC(=O)CCCCCCCCCCCCCCCCC(=O)O)C(=O)O)C(=O)NCC(=O)NCC(=O)N[C@@H](CO)C(=O)N[C@@H](CCCCNC(=O)[C@H](CCCCNC(=O)[C@H](CCCCNc1c(NCCCCCN(O)C(=O)CCC(=O)NCCCCCN(O)C(=O)CCC(=O)NCCCCCN(O)C(C)=O)c(=O)c1=O)Nc1c(NCCCCCN(O)C(=O)CCC(=O)NCCCCCN(O)C(=O)CCC(=O)NCCCCCN(O)C(C)=O)c(=O)c1=O)NC(=O)[C@H](CCCCNc1c(NCCCCCN(O)C(=O)CCC(=O)NCCCCCN(O)C(=O)CCC(=O)NCCCCCN(O)C(C)=O)c(=O)c1=O)Nc1c(NCCCCCN(O)C(=O)CCC(=O)NCCCCCN(O)C(=O)CCC(=O)NCCCCCN(O)C(C)=O)c(=O)c1=O)C(=O)O)C(C)C [zirconium-89 labelled] |  | ex vivo gamma counting | male Sprague-Dawley rat, femur | intravenous, 1 nmol, 24 h |  | tissue uptake | 0.352 %ID/g
CCCN(CCc1ccsc1)C1CCc2c(O)cccc2C1 (centres unmarked) | BCHE | inhibitor |  | with Triton |  | IC50 | 10.9 µM
COc1ccccc1N1CCN(CCCCNC(=O)c2ccc3ccccc3c2)CC1 | Plasmodium falciparum |  | Dd2 |  |  | IC50 | 10 µM
Cc1cn([C@H]2O[C@@H](CO[P@@](=O)(N[C@@H](C)C(=O)OC(C)C)Oc3ccccc3)[C@H](O)[C@H]2F)c(=O)[nH]c1=O |  | item: Fatigue | human | 10 mg |  | patients with TEAE | 0%
Clc1ccccc1CNCC1CCC(CNCc2ccccc2Cl)CC1 (centres unmarked) | BCHE | inhibitor, fluorometric |  |  |  | IC50 | 14.6 ± 17 µM
C[C@]1(CO)Cc2ncn(-c3ccc(C#N)c(Cl)c3)c2C(=O)O1 |  |  | Japanese subjects | 3 mg single dose |  | any adverse event incidence | 0%
CO[C@H]1C[C@@H]2CC[C@@H](C)[C@@](O)(O2)C(=O)C(=O)N2CCCC[C@H]2C(=O)O[C@H]([C@H](C)C[C@@H]2CC[C@@H](OC(=O)NCCOCCOCCOCCOCCOCCOCCOCCOCCC(=O)N3CCc4cc(Cn5nc(-c6ccc7oc(N)nc7c6)c6c(N)ncnc65)ccc4C3)[C@H](OC)C2)C[C@@H](O)[C@H](C)/C=C(\C)[C@@H](O)[C@@H](OC)C(=O)[C@H](C)C[C@H](C)/C=C/C=C/C=C/1C |  |  | patients with advanced solid tumours | intravenous, 6 mg weekly, grade 3 or higher |  | headache incidence | 0%
CC(C)CC(=O)OC[C@H]1O[C@@](C#N)(c2ccc3c(N)ncnn23)[C@H](O)[C@@H]1O |  |  | mouse plasma | 0.9 to 90 µM, mean over concentrations |  | unbound fraction | 0.164
CCc1ccc(CC/C=C/c2ccc3c(c2)C(=O)CC3)cc1 |  |  | Sprague-Dawley rat, male | oral, 450 mg/kg/day, 14 days |  | Glucose | 5.51 mM
Clc1ccc(-c2ccc(Cl)c(Cl)c2)c(Cl)c1 |  |  | fresh water | 20 °C, S30-1 sampler, 30 µm |  | log K(PDMS-water) | 5.66 ± 0.05
COc1cc2c(Oc3ccc4[nH]c(C)cc4c3F)ccnc2cc1OCC1(N)CC1 |  |  | paediatric recurrent refractory sarcoma | 8 mg |  | grade 3 Myalgia | 0%
C[C@@H](NC(=O)N1C(=O)[C@H](Cc2ccnc(N)c2)[C@H]1C(=O)O)C1CCCCC1 |  |  | healthy adult Chinese volunteers | continuous intravenous infusion, 2.25 mg/kg/h, 5-day infusion, CTCAE 5.0 grading |  | incidence of serious AEs | 0%
CC(C)[C@@H]1NC(=O)CNC(=O)[C@H](CC(N)=O)NC(=O)[C@H](CCCNC(=N)N)NC(=O)[C@H](Cc2ccc(O)cc2)NC(=O)[C@H](C(C)C)NC(=O)[C@@H](NC(=O)[C@@H](NC(=O)[C@H](CC(N)=O)NC(=O)[C@H](Cc2c[nH]c3ccccc23)NC(=O)[C@H](C)NC(=O)[C@H](Cc2ccccc2)NC(=O)CN)C(C)C)CSSC[C@@H](C(=O)N[C@@H](Cc2c[nH]cn2)C(=O)N[C@@H](CCCNC(=N)N)C(=O)N[C@@H](CCCNC(=N)N)C(=O)N[C@@H](C)C(=O)N[C@@H](CC(N)=O)C(N)=O)NC(=O)[C@H](C(C)C)NC(=O)[C@H](CCCNC(=N)N)NC1=O |  | circular dichroism, item: α-Helix | PBS | 80 µM, pH 7.4, added: LPS 1 µM |  | secondary structure content | 5.96%
NC(=O)[C@H]1CCN(c2ncnc(N)c2F)C[C@@H]1N1CCC[C@@H](Nc2cc(Cl)cc(C(F)(F)F)c2)C1=O |  |  | B-cell malignancy patients | oral, 41 mg twice daily, dose |  | grade ≥3 leukocytosis | 20%
N[C@@H]1c2ccccc2OC12CCN(c1cnc3c(N4CCCc5ncccc54)n[nH]c3n1)CC2 |  |  | advanced solid tumour patients | oral, 100 mg once daily |  | patients with grade ≥3 TEAE | 42.9%

SMILES | target or system | test | test system | conditions | how to read | endpoint | value
C=CC(=O)Nc1cc(Nc2nccc(Nc3cc(Cl)c(F)cc3C(C)(C)O)n2)c(OC)cc1N1CC[C@@H](N(C)C)C1 |  |  | human patients | oral, 100 mg, treatment-emergent adverse events |  | patients with lipase increased | 0%
NCCCC[C@@H]1NC(=O)[C@@H](Cc2c[nH]c3ccccc23)NC(=O)[C@H](c2ccccc2)NC(=O)[C@@H]2C[C@@H](OC(=O)NCCN)CN2C(=O)[C@H](Cc2ccccc2)NC(=O)[C@H](Cc2ccc(OCc3ccccc3)cc2)NC1=O |  |  | healthy volunteers | subcutaneous, 600 µg twice daily, day 5, 0.00 h |  | QTcI change from baseline | 0.9 ms
COc1cccc2c1CCCC2CCCN1CCN(C2CCCCC2)CC1 (centres unmarked) |  |  | CD-1 mouse, male, lung | intraperitoneal, 3 mg/kg |  | Tmax | 15 min
CCOc1cc(Oc2ccc(C(F)(F)F)cc2Cl)ccc1[N+](=O)[O-] |  |  | rat male | 0.8125 mg/kg, 8 days |  | body weight gain | 66.2%
CN(C)CCCN1c2ccccc2CCc2ccccc21 | Plasmodium falciparum |  | 7G8 |  |  | IC50 | 5.01 µM
O=S(=O)(Nc1ccccc1)c1ccc(NC(=S)Nc2ccccc2)cc1 |  |  | mouse, male, blood | oral, 5 mg/kg daily, 14 days |  | mean platelet volume | 4.68 fL
Clc1ccc(-c2cc(Cl)c(Cl)c(Cl)c2Cl)cc1Cl |  |  | PDMS-water partitioning | PCB compilation | baseline: maximum over minimum K | literature range factor | 1.4
CN(C(=O)n1cnc(-c2ccc[n+]([O-])c2)c1)C1CCCCC1 |  |  | Wistar rat, medulla oblongata | oral, 10 mg/kg/day, 48 h, repeated 5 days |  | concentration | 6.8 ± 3.4 ng/g
Clc1cc(Cl)c(-c2c(Cl)c(Cl)cc(Cl)c2Cl)cc1Cl |  |  | fresh water | 20 °C, S100 sampler, 100 µm |  | log K(PDMS-water) | 6.72 ± 0.09
C[C@]1(O)C[C@@](N)(c2ccc(-c3nc4n(c3-c3ccccc3)COc3ccncc3-4)cc2)C1 |  |  | human, advanced or metastatic solid tumours | 16 mg once daily, dose-ranging cohort |  | patients with any TEAE | 100%
CN1CCN(c2ccc(Nc3nccc(-c4ccnc(NCc5ccccc5)c4)n3)cc2C(F)(F)F)CC1 |  |  | zebrafish embryos | 50 µM, 5 d |  | toxicity | 5.6 ± 5.6%
O=C(O)CCC(CP(=O)(O)O)C(=O)O (centres unmarked) |  |  | rat, plasma | 0.3 µg/mL, 28 days, -80 °C, long-term stability | baseline: nominal concentration | relative error | -15.2%
Cc1ccccc1C(=O)NN=Cc1ccc(O)c(Br)c1 |  |  | normal C3H/HeN mouse, plasma | intravenous, 1.6 mg/kg |  | AUC(0-t) | 193 ng·h/mL
CN[C@H]1CC[C@@H](c2ccc(Cl)c(Cl)c2)c2ccccc21 |  |  | CD-1 mouse, male, plasma | intraperitoneal, 3 mg/kg |  | AUC(0-t) | 192 ng·h/mL
O=C1Nc2cc3[nH]nc(-c4ccncc4)c3cc2CN1Cc1ccccc1 |  | item: retinal detachment | patients with advanced solid tumours | intravenous, dose not given |  | patients with TEAE | 15%
COc1ccnc(C(=O)N[C@H]2COC(=O)[C@H](Cc3ccccc3)[C@@H](OC(=O)C(C)C)[C@H](C)OC2=O)c1OCOC(=O)C(C)C |  |  | field soil | geometric mean normalised, 5 sites |  | DT50 | 9.83 days
